# Results from different studies.
# Compare with care: the assays were run in different laboratories. Several values in a cell are separate wells, animals, samples, runs or records. ± gives the spread as reported.
Molecule,target or system,test,test system,conditions,scale,measurement,value
nonaarginine,PorA peptide pore,"peptide binding, planar bilayer single-channel recording",,"0.5 µM, pH 7.4, -15 mV, cis side, 150 mM KCl",,koff,66.7 ± 7 s⁻¹
aspterric acid,,hypocotyl length,Arabidopsis thaliana Col-0 seeds,"50 µg/mL, seed germination",relative to: water control,inhibition,98.9%
heparin sodium,,,healthy Chinese adult volunteers,"continuous intravenous infusion, 8 IU/kg/h, 5 days",,drug-related decreased neutrophil,25%
GWTLNSAGYLLGPRRIDHLLMIKEMPIARGREEAPGA / YAVDNHRSFNDKHGFT-NH2 (C-amide),,"RT-qPCR, refers to: Tgfb1","mouse, DSS-induced colitis, colon","ip, 3 µM, 3% DSS, unit not given",relative to: Gapdh,mRNA level,1.57 and 1.97 and 1.18 and 0.928 and 1.55
glucagon,,isotope dilution,"human, non-diabetic","intravenous infusion, 0.05 ng/kg/min, 100 to 120 min",,leg extraction,31 ± 2.2%
pertussis toxin,,"immunostaining, refers to: p-PKA","humanized UT (+/h+) mice, SAH model, meninges",dose not given,,phospho-PKA level,97.1 MFI and 78.9 MFI and 122 MFI
PENVAPR (CCT4),,"peptide binding, SILAC pull-down",,concentration not given,relative to: non-acetylated over acetylated NIT1 peptide,log2 fold change,1.37
insulin human,,refers to: PCLO mRNA,"uninfected mouse, brain","i.p., dose not given",relative to: PBS,fold change,1.22
HVLVMSATRR,,,"peptide, C57BL/6J mice, male, serum","subcutaneous osmotic pump, 3 mg/kg/day peptide basis, 8 weeks",,creatinine,0.2 mg/dL
colistin,Aspergillus fumigatus,,"pkcA G579R, solid minimal medium","80 µM, 4 days, 37 °C",relative to: untreated,radial growth ratio,0.775 and 0.782 and 0.8
Polymyxin B,,,mouse,"intraperitoneal, 40 mg/kg single dose, day 6",,survival,0%
GWTLNSAGYLLGPHAVDNHRSFNDKHGFT-NH2 (C-amide),,"RT-qPCR, refers to: Tjp1","peptide, mouse, DSS-induced colitis, colon","ip, 3 µM, 3% DSS, unit not given",relative to: Gapdh,mRNA level,3.92 and 5.5 and 7.14 and 4.77
hexaarginine,PorA peptide pore,"peptide binding, planar bilayer single-channel recording",,"0.5 µM, pH 7.4, +25 mV, trans side, 150 mM KCl",,koff,4350 ± 430 s⁻¹
